# Assay results of several laboratories.
# Parts stem from different laboratories: compare values within a part only.

# Set 1
# Target: Histone acetyltransferase KAT6A, winged helix 1, GST fusion (KAT6A, Homo sapiens, UniProt Q92794, residues 1-85)
# Technique: protein binding microarray
# Form: double-stranded DNA, one strand shown
# Matrix: in vitro
# Tested at: not given
# Notes: 8-mer, flanks averaged, mean of 2 arrays, mostly near background
# Reference: not given
# Direction: higher = stronger binding
# Construct (chain): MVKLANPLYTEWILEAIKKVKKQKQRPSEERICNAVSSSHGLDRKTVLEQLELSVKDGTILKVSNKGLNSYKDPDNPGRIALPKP
Strand,E-score
TAATCATA,-0.17
CCTTGACG,0.0771
GCTCCCTA,0.0582
GCGACTAC,0.123
CCGATAGC,0.223
CGCCGCTC,0.423

# Set 2
# Target: Sal-like protein 4, full length isoform B (SALL4, Homo sapiens, UniProt Q9UJQ4-2, residues 1-616)
# Technique: universal PBM
# Form: double-stranded DNA, one strand shown
# Matrix: in vitro
# Tested at: not given
# Notes: 8-mer, flanks averaged, mean of replicates
# Direction: higher = stronger binding
Strand,E-score
AACTGTGA,0.0367
CATACGCG,0.0549
CGAATAAG,0.0357
CCGCGTCG,-0.273
ATTGGAAA,0.224

# Set 3
# Target: Interferon regulatory factor 7, full length, phosphomimetic (IRF7, Homo sapiens, UniProt Q92985, residues 1-503, S471D/S472D/S475D/S476D/S477D/S483D/S484D/S487D)
# UniProt Q92985, sequence (whole entry, unmodified, looked up): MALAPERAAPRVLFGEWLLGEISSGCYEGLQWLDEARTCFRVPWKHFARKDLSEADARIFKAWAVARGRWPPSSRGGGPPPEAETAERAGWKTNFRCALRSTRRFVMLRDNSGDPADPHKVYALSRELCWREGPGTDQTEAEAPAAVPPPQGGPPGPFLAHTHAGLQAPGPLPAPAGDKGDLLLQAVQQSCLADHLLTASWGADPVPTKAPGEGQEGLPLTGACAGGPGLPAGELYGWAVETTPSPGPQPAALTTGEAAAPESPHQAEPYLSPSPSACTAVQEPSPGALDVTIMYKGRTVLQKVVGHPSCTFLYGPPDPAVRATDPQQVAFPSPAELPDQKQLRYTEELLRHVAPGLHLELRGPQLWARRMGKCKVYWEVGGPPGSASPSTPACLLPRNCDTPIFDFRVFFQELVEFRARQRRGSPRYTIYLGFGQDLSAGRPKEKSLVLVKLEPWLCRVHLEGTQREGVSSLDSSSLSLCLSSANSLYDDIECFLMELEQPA
# Technique: protein-binding microarray
# Form: double-stranded DNA, one strand shown
# Matrix: in vitro
# Tested at: 2200 nM top
# Notes: 60-bp whole probe
# With: salmon DNA 0.4 mg/ml
# Reference: random background probes
# Direction: higher = stronger binding
Strand,fitted relative affinity [z-score]
GCCTAGCACTCAATCTTCATTGTCATACTGTGCTAGGTCTTGATTCGCTTGACGCTGCTG,0.923
GCCTAGCACCACGATTTCGGGACTGGAGACGTGCTAGTCTTGATTCGCTTGACGCTGCTG,1.75
GCCTAGCACTTAGGTCTCCGTCTCCTTTAGTGCTAGGTCTTGATTCGCTTGACGCTGCTG,0.928
GCCTAGCACGACGATTTCGAGTATCGAGACGTGCTAGTCTTGATTCGCTTGACGCTGCTG,1.55

# Single results of other studies
Molecule,target,assay,system,setting,scale,quantity,value
"PhoQ, residues 284 288 289 292 302 303 ASVMEA","PhoP, residues 12 14 15 18 19 VQGLL (Escherichia coli, UniProt P23836)","Sort-seq, refers to: YFP reporter",E. coli,"PhoQ-PhoP variant library, with: 10 µM Mg2+","reference: high Mg2+ state, higher = stronger signaling",fold induction,18

# A few entries again (single results of other studies):
Molecule,target,assay,system,setting,scale,quantity,value
"PhoQ, residues 284 288 289 292 302 303 ASVMEA","PhoP, residues 12 14 15 18 19 VQGLL (Escherichia coli, UniProt P23836)","Sort-seq, refers to: YFP reporter",E. coli,"PhoQ-PhoP variant library, with: 10 µM Mg2+","reference: high Mg2+ state, higher = stronger signaling",fold induction,18
